Experimental data collected from several papers.
A part holds a random share of what one study measured.

Study 1 — technique: universal PBM; form: double-stranded DNA, one strand shown; matrix: in vitro; tested at: not given; reading: higher = stronger binding; endpoint: E-score
Target: Sal-like protein 4, full length isoform B (SALL4, Homo sapiens, UniProt Q9UJQ4-2, residues 1-616)
Setting: 8-mer, flanks averaged, mean of replicates
Construct (chain): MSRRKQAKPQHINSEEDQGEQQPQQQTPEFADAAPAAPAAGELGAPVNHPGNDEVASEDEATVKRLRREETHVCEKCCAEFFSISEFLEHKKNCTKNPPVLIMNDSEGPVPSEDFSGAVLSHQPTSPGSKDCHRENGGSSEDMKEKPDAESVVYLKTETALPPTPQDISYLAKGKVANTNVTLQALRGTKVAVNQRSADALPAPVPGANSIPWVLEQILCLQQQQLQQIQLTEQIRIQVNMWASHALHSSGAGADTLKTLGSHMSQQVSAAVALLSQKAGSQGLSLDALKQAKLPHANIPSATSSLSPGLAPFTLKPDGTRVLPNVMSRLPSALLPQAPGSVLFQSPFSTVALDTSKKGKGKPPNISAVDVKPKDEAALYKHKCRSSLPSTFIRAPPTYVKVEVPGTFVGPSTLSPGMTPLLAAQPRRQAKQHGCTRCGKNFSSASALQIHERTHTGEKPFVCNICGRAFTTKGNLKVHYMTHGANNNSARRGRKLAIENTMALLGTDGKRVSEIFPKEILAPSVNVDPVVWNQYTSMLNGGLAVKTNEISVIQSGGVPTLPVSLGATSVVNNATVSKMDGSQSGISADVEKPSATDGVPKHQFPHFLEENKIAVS
CTGCAACC: -0.197
AAAAGGGC: 0.0137
CAAATATC: 0.237
CTCGGAGA: -0.219

Study 2 — technique: RNA Bind-n-Seq; form: RNA; matrix: in vitro; tested at: 20 nM; setting: 6-mer, flanks averaged, single round; together with: 150 mM KCl; baseline: input library; reading: higher = stronger binding; endpoint: 6-mer enrichment (R)
Target: TAR DNA-binding protein 43, full length, His tag (TARDBP, Homo sapiens, UniProt Q13148, residues 1-414)
CAGUAG: 0.86
UAUCGC: 0.593
GUCUUG: 0.839

Study 3 — technique: protein binding microarray; form: double-stranded DNA, one strand shown; matrix: in vitro; tested at: not given; baseline: not given; reading: higher = stronger binding; endpoint: E-score
Target: Histone acetyltransferase KAT6A, both winged helices, GST fusion (KAT6A, Homo sapiens, UniProt Q92794, residues 1-181)
Setting: 8-mer, flanks averaged, mean of 2 arrays, mostly near background
Residues (chain): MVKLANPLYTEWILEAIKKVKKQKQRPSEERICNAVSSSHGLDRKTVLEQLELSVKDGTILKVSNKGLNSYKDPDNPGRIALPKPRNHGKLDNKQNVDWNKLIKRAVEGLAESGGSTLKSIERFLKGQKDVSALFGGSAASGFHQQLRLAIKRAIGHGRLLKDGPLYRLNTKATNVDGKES
CCTAGACA: -0.177
GCTGGCAC: -0.0832
AAAACATA: 0.0641

Single results of other studies
PhoQ, residues 284 288 289 292 302 303 TNSAEL  fold induction (PhoP, residues 12 14 15 18 19 LYHSL (Escherichia coli, UniProt P23836); Sort-seq, item: YFP reporter; E. coli; PhoQ-PhoP variant library, together with: 10 µM Mg2+; baseline: high Mg2+ state, higher = stronger signaling): 26.2

Excerpt of the above (study 1):
AAAAGGGC: 0.0137
